Published values collected from several papers.
Every numbered part comes from another study and shows a few of its results, in no order. Substitutions count along the parent as printed.

Sample 1 — target: CCND1, cyclin fold, Cln2 fusion (human); technique: yeast growth competition, sequencing; sample: yeast; notes: weak parent motif; reference: not given; reading: higher = stronger binding
Starting sequence: WEE1 docking peptide (human); HKTFRKLRLFDTP
Substitution | normalised enrichment score
H1V | -0.57
R5A L7A | 0.53
H1G | -0.609
K2W | 0.406
H1C | -0.317
L9Q | 0.224
R8E | 0.856
R5W | 0.519
L7D | -0.511
T3Y | -1.31
D11Q | 1.67
R5I | 0.394
K2A | 0.293
T12L | -0.128
F10W | -0.0157
T3G | 0.519
P13C | 0.387

Sample 2 — technique: DHFR PCA, deep sequencing; sample: yeast; with: (+)-ABA 17 µM; reference: wild-type fitted maximum; reading: higher = stronger binding
Target: ABI1, truncated, D143A, DHFR fusion (Arabidopsis thaliana)
Notes: methotrexate growth selection, single substitutions
Starting sequence: PYL1, truncated, DHFR fusion (Arabidopsis thaliana); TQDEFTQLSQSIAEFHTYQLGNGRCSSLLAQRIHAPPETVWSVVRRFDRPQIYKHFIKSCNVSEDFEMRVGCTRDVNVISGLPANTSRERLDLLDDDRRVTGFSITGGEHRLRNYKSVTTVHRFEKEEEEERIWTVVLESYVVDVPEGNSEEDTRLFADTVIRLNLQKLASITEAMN
Substitution | relative binding score [%]
L138A | 4.6
M176S | 79.2
T120M | 0.851
N77Y | 88.6
E67M | 72.5
E64T | 83.8
V78P | 10.8
C72D | 83
N114Q | 14.5

Sample 3 — technique: aptamer microarray, sandwich; form: DNA with 2'F-ANA; sample: in vitro; tested at: 200 nM; with: Cy3 exosite-II aptamer, 400 nM; reading: higher = stronger binding; sequence: GGTTGGTGTGGTTGG
Target: Prothrombin, mature alpha-thrombin (F2, Homo sapiens, UniProt P00734)
Notes: whole 15-mer aptamer, many near background
Modification | mean fluorescence intensity [a.u.]
2'F-ANA at 2 7 8 10 11 12 | 181
2'F-ANA at 3 5 8 10 11 12 14 15 | 51.4
2'F-ANA at 2 3 4 5 8 9 10 13 14 | 58.6
2'F-ANA at 2 4 5 6 7 10 12 13 | 49.7
2'F-ANA at 1 2 5 9 11 | 100
2'F-ANA at 1 2 3 5 11 12 13 15 | 75
2'F-ANA at 3 4 6 7 8 9 11 12 13 14 15 | 246
2'F-ANA at 1 2 3 7 10 15 | 72.6
2'F-ANA at 4 5 6 7 11 14 15 | 45.9
2'F-ANA at 1 5 6 7 8 9 10 11 12 13 14 15 | 53.5
2'F-ANA at 7 8 13 15 | 575
2'F-ANA at 5 9 12 13 14 15 | 43.3
2'F-ANA at 2 3 4 5 6 9 10 | 57.1
2'F-ANA at 2 3 4 5 7 9 10 15 | 56.9
2'F-ANA at 2 3 5 6 8 9 10 11 12 13 14 15 | 52.7
2'F-ANA at 1 3 8 9 10 11 12 14 | 57.5
2'F-ANA at 2 5 8 10 11 12 | 47.9
2'F-ANA at 1 2 3 5 6 8 10 14 15 | 110
2'F-ANA at 1 2 3 9 10 13 15 | 65.5
2'F-ANA at 5 8 10 11 | 47.7

Mixed results
Molecule | target | assay | system | setting | scale | quantity | result
PhoQ, residues 284 288 289 292 302 303 TLASMF | PhoP, residues 12 14 15 18 19 TPWLV (Escherichia coli, UniProt P23836) | Sort-seq, measured: YFP reporter | E. coli | PhoQ-PhoP variant library, with: 10 µM Mg2+ | reference: high Mg2+ state, higher = stronger signaling | fold induction | 8.73

Repeated from above (sample 1):
Substitution | normalised enrichment score
T3Y | -1.31
D11Q | 1.67
R5I | 0.394
K2A | 0.293
